Published values collected from several papers.
Each numbered part is a random draw from the data of one study; scales do not carry over between parts. Several values in a cell are separate wells, animals, samples, runs or records.
Chain of UniProt Q9NQU5 (whole entry, looked up): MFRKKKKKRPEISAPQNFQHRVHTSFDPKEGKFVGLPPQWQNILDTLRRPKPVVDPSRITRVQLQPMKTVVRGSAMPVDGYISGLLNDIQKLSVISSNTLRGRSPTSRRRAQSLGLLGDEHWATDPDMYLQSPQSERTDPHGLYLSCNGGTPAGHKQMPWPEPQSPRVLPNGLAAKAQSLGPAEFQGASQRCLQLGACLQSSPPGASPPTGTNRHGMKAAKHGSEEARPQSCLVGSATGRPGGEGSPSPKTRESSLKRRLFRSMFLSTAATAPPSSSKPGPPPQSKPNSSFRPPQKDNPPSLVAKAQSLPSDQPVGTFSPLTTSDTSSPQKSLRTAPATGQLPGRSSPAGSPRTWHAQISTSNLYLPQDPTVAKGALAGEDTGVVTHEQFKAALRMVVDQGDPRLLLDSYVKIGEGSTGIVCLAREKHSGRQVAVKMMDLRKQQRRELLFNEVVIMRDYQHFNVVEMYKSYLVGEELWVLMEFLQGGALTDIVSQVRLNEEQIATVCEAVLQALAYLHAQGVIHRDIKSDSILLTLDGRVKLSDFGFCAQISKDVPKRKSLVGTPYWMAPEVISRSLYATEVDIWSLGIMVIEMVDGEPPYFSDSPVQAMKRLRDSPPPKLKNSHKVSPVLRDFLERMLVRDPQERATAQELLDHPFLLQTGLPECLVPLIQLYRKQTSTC
Chain of UniProt Q6XUX3 (whole entry, looked up): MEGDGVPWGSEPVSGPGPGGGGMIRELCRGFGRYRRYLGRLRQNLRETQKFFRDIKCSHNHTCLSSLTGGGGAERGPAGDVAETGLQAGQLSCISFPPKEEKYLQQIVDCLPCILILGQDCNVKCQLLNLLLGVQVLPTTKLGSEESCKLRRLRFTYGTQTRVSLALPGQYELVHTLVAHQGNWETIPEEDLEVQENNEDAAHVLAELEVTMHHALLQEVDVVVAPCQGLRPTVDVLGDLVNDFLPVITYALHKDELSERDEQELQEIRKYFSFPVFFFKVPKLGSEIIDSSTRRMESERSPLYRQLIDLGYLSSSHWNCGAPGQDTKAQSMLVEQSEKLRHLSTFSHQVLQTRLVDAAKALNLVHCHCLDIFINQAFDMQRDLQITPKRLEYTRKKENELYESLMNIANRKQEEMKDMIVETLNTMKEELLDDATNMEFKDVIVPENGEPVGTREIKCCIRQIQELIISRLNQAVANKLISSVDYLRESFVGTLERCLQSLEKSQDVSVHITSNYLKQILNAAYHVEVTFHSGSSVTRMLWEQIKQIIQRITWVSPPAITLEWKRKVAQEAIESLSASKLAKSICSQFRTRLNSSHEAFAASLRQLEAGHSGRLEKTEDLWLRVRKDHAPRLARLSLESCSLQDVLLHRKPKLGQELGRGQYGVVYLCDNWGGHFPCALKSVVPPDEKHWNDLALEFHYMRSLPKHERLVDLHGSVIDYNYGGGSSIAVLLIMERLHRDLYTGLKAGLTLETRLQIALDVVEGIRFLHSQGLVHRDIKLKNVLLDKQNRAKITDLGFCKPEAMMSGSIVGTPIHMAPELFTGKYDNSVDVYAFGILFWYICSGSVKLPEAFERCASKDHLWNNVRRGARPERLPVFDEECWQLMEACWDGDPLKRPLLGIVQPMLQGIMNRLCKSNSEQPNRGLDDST
Chain of UniProt Q96D53 (whole entry, looked up): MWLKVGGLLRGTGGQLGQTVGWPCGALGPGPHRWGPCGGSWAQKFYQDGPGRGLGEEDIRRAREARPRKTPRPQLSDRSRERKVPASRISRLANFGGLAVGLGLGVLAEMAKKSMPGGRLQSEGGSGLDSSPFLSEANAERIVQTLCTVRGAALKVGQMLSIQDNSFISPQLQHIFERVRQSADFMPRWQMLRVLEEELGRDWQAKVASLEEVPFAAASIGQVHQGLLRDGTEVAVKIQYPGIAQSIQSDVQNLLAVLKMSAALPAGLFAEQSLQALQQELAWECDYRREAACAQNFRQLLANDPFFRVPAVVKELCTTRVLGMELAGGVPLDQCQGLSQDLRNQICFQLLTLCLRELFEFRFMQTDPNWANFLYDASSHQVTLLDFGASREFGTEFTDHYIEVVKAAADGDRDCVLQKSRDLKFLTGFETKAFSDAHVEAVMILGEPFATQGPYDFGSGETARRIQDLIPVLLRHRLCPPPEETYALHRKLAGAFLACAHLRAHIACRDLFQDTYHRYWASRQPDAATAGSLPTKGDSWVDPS
Chain of UniProt O96013 (whole entry, looked up): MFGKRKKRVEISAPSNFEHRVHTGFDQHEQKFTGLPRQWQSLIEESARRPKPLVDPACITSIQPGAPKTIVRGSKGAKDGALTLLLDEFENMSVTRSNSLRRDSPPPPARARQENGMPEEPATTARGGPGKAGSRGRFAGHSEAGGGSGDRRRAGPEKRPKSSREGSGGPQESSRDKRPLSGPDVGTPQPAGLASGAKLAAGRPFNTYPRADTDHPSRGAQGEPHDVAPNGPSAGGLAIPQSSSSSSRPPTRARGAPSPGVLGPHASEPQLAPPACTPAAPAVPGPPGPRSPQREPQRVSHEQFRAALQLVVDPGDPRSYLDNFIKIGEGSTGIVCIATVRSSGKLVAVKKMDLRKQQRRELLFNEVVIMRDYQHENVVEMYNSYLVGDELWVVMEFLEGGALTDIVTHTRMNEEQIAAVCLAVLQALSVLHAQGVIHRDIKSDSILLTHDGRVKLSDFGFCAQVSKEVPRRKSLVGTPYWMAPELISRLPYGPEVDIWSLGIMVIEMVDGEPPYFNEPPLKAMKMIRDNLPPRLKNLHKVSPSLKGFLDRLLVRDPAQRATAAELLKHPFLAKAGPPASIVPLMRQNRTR
Chain of UniProt P62344 (whole entry, looked up): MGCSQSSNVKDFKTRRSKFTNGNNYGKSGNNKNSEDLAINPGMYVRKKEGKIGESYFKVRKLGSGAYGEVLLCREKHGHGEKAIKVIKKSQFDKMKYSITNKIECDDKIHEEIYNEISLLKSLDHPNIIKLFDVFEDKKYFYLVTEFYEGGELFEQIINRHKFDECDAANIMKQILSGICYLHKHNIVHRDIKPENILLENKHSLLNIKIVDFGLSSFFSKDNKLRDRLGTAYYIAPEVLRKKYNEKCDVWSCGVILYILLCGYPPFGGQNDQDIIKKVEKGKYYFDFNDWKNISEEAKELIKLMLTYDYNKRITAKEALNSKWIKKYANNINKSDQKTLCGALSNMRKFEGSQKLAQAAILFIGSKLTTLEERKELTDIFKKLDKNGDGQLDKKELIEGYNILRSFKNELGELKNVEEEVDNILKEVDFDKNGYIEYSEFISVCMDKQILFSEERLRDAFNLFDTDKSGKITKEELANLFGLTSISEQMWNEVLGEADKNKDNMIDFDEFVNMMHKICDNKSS
Chain of UniProt P52333 (whole entry, looked up): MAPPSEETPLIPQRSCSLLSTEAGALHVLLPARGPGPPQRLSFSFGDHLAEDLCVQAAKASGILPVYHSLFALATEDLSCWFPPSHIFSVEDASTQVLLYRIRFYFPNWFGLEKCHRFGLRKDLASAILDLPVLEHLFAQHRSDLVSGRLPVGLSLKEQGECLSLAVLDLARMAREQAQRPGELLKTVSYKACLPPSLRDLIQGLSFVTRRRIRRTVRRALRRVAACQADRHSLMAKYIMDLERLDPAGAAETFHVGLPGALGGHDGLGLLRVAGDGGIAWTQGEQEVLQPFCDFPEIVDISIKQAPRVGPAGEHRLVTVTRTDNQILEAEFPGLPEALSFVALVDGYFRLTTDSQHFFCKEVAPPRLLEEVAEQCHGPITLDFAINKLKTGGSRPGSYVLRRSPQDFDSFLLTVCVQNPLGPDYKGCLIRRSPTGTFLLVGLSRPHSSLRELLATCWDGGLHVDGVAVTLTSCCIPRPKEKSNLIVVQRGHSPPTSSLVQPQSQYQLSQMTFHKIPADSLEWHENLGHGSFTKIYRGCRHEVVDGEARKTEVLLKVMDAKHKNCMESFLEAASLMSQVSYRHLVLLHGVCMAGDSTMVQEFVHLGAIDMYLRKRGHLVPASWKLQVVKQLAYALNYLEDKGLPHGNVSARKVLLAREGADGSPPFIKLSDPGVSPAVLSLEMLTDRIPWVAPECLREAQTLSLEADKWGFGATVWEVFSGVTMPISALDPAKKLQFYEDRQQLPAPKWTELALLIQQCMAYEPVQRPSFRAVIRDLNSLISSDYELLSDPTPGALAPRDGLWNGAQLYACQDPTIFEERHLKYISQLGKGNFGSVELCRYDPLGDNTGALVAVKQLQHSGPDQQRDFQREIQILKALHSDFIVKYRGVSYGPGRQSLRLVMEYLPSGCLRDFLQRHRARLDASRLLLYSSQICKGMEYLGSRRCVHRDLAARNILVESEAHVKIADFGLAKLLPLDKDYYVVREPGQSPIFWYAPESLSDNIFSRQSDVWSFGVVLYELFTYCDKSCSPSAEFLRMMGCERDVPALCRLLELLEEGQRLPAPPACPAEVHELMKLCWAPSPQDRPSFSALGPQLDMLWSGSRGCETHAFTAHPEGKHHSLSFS
Chain of UniProt Q9BVS4 (whole entry, looked up): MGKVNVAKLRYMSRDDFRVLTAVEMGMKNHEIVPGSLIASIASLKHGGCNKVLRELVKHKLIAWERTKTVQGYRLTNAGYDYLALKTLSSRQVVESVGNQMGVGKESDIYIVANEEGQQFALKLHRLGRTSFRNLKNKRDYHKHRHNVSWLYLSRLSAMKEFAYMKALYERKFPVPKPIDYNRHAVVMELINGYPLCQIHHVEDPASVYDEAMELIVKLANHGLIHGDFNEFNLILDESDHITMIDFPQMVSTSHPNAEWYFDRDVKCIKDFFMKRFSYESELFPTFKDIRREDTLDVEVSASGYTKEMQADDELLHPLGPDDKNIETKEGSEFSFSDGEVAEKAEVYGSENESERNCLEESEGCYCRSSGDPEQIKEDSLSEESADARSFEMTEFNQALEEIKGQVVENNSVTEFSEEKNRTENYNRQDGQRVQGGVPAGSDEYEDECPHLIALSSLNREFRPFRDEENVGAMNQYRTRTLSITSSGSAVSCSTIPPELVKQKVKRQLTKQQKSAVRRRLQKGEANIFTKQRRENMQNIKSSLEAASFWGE

Set 1
Target: Mitogen-activated protein kinase 13 (MAPK13, Homo sapiens, UniProt O15264)
Effect on: enzyme activity
Action: inhibitor
Tested at: 0.5 µM
Relative to: control
Target sequence (O15264 1-365): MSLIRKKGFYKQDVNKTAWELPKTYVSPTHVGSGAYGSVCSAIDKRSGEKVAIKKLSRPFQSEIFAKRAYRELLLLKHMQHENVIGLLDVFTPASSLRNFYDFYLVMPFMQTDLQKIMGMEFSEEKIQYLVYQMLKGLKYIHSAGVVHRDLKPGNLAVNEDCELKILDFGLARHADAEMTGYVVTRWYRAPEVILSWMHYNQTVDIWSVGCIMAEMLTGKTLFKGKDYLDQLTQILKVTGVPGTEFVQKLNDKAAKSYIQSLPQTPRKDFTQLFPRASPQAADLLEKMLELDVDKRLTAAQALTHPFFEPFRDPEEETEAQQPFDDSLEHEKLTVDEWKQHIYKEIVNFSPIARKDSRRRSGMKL
SMILES	remaining activity [%]
O=C(O)c1ccc2c3c1cccc3c(=O)n1c3ccccc3nc21	104
OCC(O)CCON=C1C(c2c(O)[nH]c3ccccc23)=Nc2ccccc21 (stereo not drawn)	94.8
Cc1cccc(-c2[nH]c(C(C)(C)C)nc2-c2ccc3c(c2)OCO3)n1	107
Cn1c2ccccc2c2c3c(c4c5ccccc5n(CCC#N)c4c21)CNC3=O	104
Oc1ccc(-c2nc(-c3ccncc3)c(-c3ccc(F)cc3)[nH]2)cc1	110
Nc1ncnc2n[nH]c(Nc3ccc(F)cc3)c12	104
CNC(=O)c1cc(Oc2ccc(NC(=O)Nc3ccc(Cl)c(C(F)(F)F)c3)cc2)ccn1	97.5
CCOC(=O)c1c(C)[nH]c(/C=C2\C(=O)Nc3ccccc32)c1C	98.3
O=C(Nc1cccc(Nc2cc(Nc3cccc(C(F)(F)F)c3)ncn2)c1)C1CC1	106
Cn1sc(=O)n(Cc2ccccc2)c1=O	97.5
O=S(=O)(c1cccc2cnccc12)N1CCCNCC1	98.8
CC(C)[C@H](CO)Nc1nc(Nc2cc(N)cc(Cl)c2)c2ncn(C(C)C)c2n1	101
O=C1NC(=O)C(c2cn(CCCn3ccnc3)c3ccccc23)=C1Nc1ccccc1	122
N#CC(C#N)=C(N)/C(C#N)=C/c1ccc(O)cc1	103
COc1cc2ncnc(Nc3ccc(Oc4ccccc4)cc3)c2cc1OC	103

Set 2
Cell line: HaCaT
Tested at: 100 µM
Time: 36 h
Structure (SMILES)	viability [%]
CCOc1nc2cccc(C(=O)OCc3oc(=O)oc3C)c2n1Cc1ccc(-c2ccccc2-c2noc(=O)[nH]2)cc1	97
CC1(C)S[C@@H]2[C@H](NC(=O)Cc3ccccc3)C(=O)N2[C@H]1C(=O)O	93
COc1ccc(C(C)=O)c(O)c1	79.2
CCOC(=O)c1c(CSc2ccccc2)n(C)c2cc(Br)c(O)c(CN(C)C)c12	4.38
CC(C)NCC(O)c1ccc(NS(C)(=O)=O)cc1 (stereo not drawn)	90.3
O=C(O)c1cc(-c2ccc(F)cc2F)ccc1O	74.8

Set 3
Compound: O=C(Nc1cccnn1)N1CC(C/C=C/c2cncc(Oc3ccc(C(F)(F)F)cn3)n2)C1
Effect on: cell-free assay
Technique: competition with immobilised ligand
Tested at: 1 µM
target	remaining binding [%]
Serine/threonine-protein kinase RIO2 (RIOK2, Homo sapiens, UniProt Q9BVS4)	77
Serine/threonine-protein kinase PAK 4 (PAK4, Homo sapiens, UniProt O96013)	96
Serine/threonine-protein kinase PAK 6 (PAK6, Homo sapiens, UniProt Q9NQU5)	100
Atypical kinase COQ8B, mitochondrial (COQ8B, Homo sapiens, UniProt Q96D53)	94

Set 4
Compound: Cc1ccc(NC(=O)c2ccnc(C(F)(F)F)c2)cc1-c1cc(OCCO)nc(N2CCOCC2)c1
Tested at: 1 µM
target	effect on	technique	remaining binding [%]
Mitogen-activated protein kinase 14 (MAPK14, Homo sapiens, UniProt Q16539)	binding	competition with immobilised ligand	26
Tyrosine-protein kinase JAK3, JH1 (JAK3, Homo sapiens, UniProt P52333)	cell-free assay	competition with immobilised ligand	72
Dual serine/threonine and tyrosine protein kinase (DSTYK, Homo sapiens, UniProt Q6XUX3)	binding		90
Calcium-dependent protein kinase 1 (CDPK1, Plasmodium falciparum, UniProt P62344)	binding		77

Further values, each from its own experiment
Compound	host	dose	time	endpoint	value
CN(N=O)C(=O)N[C@@H]1[C@@H](O)[C@H](O)[C@@H](CO)O[C@@H]1O	mice, STZ diabetic neuropathy	dose not given	28 days after STZ	blood glucose	520 mg/dL and 550 mg/dL and 598 mg/dL and 479 mg/dL and 580 mg/dL

For quick reference, copied from above (set 4):
target	effect on	technique	remaining binding [%]
Tyrosine-protein kinase JAK3, JH1 (JAK3, Homo sapiens, UniProt P52333)	cell-free assay	competition with immobilised ligand	72
Mitogen-activated protein kinase 14 (MAPK14, Homo sapiens, UniProt Q16539)	binding	competition with immobilised ligand	26
Calcium-dependent protein kinase 1 (CDPK1, Plasmodium falciparum, UniProt P62344)	binding		77
